# Measured values gathered from unrelated publications.
# ± gives the spread as reported.
Compound,cell line,effect on,technique,medium,time,setting,IC50
COc1cc(O)c(-c2ccc(OC)c3c(O)cc(C)c(-c4cc(-c5c(O)cc(OC)c6c5C[C@@H](C)N[C@@H]6C)c5cc(C)cc(OC)c5c4O)c23)c2c1[C@@H](C)N(C)[C@H](C)C2,L6,cytotoxicity,,,,,6.68 µM
O=C1C=C(c2coc3cc(O)cc(O)c3c2=O)C(=O)C([N+](=O)[O-])=C1O,HT-29,cytotoxicity,MTT,,72 h,,inactive
CN1CCN(c2ccc(/C=C3\C(=O)Nc4ccc(-c5ccc(-c6ccc(O)cc6)cc5)cc43)cc2)CC1,NIH3T3,cytotoxicity,WST-1,,48 h,10% FBS,> 1 µM
Cc1ccc(N2Cc3cc(NC(=O)N4CCN(c5ccc(F)cc5)CC4)ccc3C2=O)cc1,primary peritoneal mouse macrophages,cytotoxicity,,5% fetal calf serum,,,32 µM
CCSc1ncc(-c2cc(-c3ccc4c(c3)OCO4)[nH]c(=O)c2C#N)n1Cc1ccccc1,HT-29,cell growth or viability,MTT,,24 h,,393 µM
O=C(Nc1ccc2c(c1)CN(c1ccc(Cl)c(Cl)c1)C2=O)N1CCN(c2ccc(Cl)cc2)CC1,primary peritoneal mouse macrophages,cytotoxicity,,5% fetal calf serum,,,> 64 µM
CSc1ncc(-c2cc(-c3ccc(Br)cc3)[nH]c(=O)c2C#N)n1Cc1ccccc1,HT-29,cell growth or viability,MTT,,24 h,,> 130 µM
O=C(Nc1ccc2c(c1)CN(c1ccc(F)c(F)c1)C2=O)N1CCN(c2ccc(Cl)cc2)CC1,primary peritoneal mouse macrophages,cytotoxicity,,5% fetal calf serum,,,> 64 µM
CCCCn1cc(C(=O)O)c(=O)c2cc(F)c3[nH]nnc3c21,SW480,cell growth or viability,SRB,,,,165 µM
Oc1ccccc1/C=N/NC(=S)Nc1cccc(C(F)(F)F)c1,HUVEC,cell growth or viability,CCK-8,,24 h,,8.07 µg/mL
CC(=O)[O-].Nc1ccc(C([O-])=NN=Cc2ccc(OCC(=O)Nc3ccc(Cl)cc3)cc2)cc1.[Co+2],HeLa,cytotoxicity,MTT,,24 h,,19.7 ± 2 µM
Cc1ccc(N2Cc3cc(NC(=O)N4CCN(c5cccc(C(F)(F)F)c5)CC4)ccc3C2=O)cc1,primary peritoneal mouse macrophages,cytotoxicity,,5% fetal calf serum,,,> 64 µM
CCCCn1cc(C(=O)O)c(=O)c2cc(F)c(N)c([N+](=O)[O-])c21,SW480,cell growth,SRB,,72 h,,294 ± 39.3 µg/mL
COc1cc(O)c(-c2ccc(OC)c3c(OC)cc(C)cc23)c2c1[C@H](C)N(C)[C@H](C)C2,L6,cytotoxicity,,,,,49.9 µM
O=C(Nc1ccc2c(c1)CN(c1ccc(Cl)cc1)C2=O)N1CC[C@H](O)C1,primary peritoneal mouse macrophages,cytotoxicity,,5% fetal calf serum,,,> 64 µM
COC(C)(C)C(O)COc1c2ccoc2cc2oc(=O)ccc12 (stereo not drawn),NIH3T3,cell growth or viability,MTT,,24 h,,47.2 µM
Cc1cc(=O)c2c(O)c3c(O[C@@H]4O[C@H](CO)[C@@H](O)[C@H](O)[C@H]4O)cc(O)cc3cc2o1,HK-2 in HepaRG co-culture,cell viability,MTT,,48 h,,391 µM
O=C(Nc1ccc2c(c1)CN(c1ccc(Br)cc1)C2=O)N1CCN(c2ccc(F)cc2)CC1,primary peritoneal mouse macrophages,cytotoxicity,,5% fetal calf serum,,,32 µM

# Some of these lines once more:
Compound,cell line,effect on,technique,medium,time,setting,IC50
CN1CCN(c2ccc(/C=C3\C(=O)Nc4ccc(-c5ccc(-c6ccc(O)cc6)cc5)cc43)cc2)CC1,NIH3T3,cytotoxicity,WST-1,,48 h,10% FBS,> 1 µM
Cc1ccc(N2Cc3cc(NC(=O)N4CCN(c5ccc(F)cc5)CC4)ccc3C2=O)cc1,primary peritoneal mouse macrophages,cytotoxicity,,5% fetal calf serum,,,32 µM
CCSc1ncc(-c2cc(-c3ccc4c(c3)OCO4)[nH]c(=O)c2C#N)n1Cc1ccccc1,HT-29,cell growth or viability,MTT,,24 h,,393 µM
